Published values pooled from the literature.
Several values in a cell are separate wells, animals, samples, runs or records. Numbers after ± are the reported error.
Urease subunit alpha: Urease subunit alpha (Sporosarcina pasteurii, UniProt P41020)
Chain of UniProt P41020 (whole entry, looked up): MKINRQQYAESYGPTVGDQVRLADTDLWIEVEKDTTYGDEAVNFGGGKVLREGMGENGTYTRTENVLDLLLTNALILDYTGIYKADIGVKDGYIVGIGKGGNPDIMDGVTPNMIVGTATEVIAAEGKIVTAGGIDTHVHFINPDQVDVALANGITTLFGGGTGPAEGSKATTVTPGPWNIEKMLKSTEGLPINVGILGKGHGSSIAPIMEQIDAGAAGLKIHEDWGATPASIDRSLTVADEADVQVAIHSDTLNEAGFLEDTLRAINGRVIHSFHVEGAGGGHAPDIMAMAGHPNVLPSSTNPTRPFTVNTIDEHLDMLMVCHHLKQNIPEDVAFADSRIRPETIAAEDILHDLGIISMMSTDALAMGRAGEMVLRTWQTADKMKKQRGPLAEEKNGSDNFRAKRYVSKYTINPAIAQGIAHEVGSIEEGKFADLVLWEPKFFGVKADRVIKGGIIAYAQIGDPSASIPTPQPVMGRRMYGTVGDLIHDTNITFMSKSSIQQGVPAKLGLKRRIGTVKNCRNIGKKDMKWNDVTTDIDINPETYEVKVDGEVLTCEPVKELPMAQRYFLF
HTR4: 5-hydroxytryptamine receptor 4 (HTR4, Homo sapiens, UniProt Q13639)
Chain of UniProt Q13639 (whole entry, looked up): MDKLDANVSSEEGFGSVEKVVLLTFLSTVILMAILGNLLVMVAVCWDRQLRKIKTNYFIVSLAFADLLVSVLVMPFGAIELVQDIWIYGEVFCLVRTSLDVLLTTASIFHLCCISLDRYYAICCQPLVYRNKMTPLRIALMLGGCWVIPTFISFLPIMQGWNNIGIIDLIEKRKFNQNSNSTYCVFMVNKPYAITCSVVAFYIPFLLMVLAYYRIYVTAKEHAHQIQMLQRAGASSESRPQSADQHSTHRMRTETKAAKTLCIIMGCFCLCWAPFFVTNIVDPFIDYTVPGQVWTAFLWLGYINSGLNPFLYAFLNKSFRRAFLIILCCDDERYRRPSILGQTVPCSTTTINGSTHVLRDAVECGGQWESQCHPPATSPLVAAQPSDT
MAL12: Alpha-glucosidase MAL12 (MAL12, Saccharomyces cerevisiae S288c, UniProt P53341)
Chain of UniProt P53341 (whole entry, looked up): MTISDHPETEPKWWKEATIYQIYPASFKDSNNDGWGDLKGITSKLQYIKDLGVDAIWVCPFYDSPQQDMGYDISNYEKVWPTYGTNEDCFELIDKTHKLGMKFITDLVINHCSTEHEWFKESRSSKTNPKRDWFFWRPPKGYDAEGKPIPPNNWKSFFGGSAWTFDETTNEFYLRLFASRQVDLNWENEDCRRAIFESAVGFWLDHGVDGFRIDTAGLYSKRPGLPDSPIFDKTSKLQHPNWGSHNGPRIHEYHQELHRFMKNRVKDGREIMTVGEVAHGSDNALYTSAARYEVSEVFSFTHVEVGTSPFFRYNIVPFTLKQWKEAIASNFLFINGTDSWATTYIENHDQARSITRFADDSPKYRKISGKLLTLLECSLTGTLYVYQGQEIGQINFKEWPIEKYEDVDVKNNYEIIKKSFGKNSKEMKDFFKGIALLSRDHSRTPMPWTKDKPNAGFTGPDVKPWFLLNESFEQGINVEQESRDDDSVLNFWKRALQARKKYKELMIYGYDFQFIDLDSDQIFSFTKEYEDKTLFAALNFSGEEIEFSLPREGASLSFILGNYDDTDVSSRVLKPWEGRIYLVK
HTR1A: 5-hydroxytryptamine receptor 1A (HTR1A, Homo sapiens, UniProt P08908)
Chain of UniProt Q8IWT6 (whole entry, unmodified, looked up): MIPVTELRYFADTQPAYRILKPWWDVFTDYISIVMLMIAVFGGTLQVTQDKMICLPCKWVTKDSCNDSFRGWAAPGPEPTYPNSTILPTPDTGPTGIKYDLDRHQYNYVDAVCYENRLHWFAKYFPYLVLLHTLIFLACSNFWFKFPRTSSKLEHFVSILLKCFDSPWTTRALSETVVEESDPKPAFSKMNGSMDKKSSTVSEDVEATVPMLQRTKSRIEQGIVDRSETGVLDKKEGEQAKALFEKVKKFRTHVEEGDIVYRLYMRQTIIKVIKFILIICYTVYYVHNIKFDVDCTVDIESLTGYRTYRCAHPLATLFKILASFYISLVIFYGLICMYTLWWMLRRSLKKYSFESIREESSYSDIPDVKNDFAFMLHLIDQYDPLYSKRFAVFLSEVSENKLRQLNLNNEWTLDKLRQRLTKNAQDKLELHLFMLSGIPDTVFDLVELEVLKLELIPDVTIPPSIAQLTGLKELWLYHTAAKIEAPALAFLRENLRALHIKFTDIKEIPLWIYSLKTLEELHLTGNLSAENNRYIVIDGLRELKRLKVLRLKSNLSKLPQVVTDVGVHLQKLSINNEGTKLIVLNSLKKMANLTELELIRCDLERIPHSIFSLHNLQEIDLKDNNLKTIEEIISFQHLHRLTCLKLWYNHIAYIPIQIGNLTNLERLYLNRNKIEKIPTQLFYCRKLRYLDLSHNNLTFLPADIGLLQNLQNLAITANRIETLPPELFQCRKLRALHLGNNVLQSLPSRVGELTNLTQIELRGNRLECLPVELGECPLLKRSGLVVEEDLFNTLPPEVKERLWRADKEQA
Chain of UniProt Q13131 (whole entry, looked up): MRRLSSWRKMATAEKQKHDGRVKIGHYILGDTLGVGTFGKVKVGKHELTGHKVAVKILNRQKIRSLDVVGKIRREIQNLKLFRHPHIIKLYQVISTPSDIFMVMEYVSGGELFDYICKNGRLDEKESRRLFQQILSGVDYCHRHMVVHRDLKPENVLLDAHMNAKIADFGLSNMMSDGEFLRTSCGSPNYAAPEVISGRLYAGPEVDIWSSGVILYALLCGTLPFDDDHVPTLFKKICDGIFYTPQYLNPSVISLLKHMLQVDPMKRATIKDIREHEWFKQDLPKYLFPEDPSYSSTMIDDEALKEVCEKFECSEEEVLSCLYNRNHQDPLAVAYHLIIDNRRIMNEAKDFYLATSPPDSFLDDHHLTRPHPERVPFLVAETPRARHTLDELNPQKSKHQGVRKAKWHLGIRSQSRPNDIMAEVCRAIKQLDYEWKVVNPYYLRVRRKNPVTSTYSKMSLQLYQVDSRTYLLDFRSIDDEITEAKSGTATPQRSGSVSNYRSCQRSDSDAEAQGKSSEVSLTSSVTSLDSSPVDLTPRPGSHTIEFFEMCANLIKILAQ
Chain of UniProt P00748 (whole entry, looked up): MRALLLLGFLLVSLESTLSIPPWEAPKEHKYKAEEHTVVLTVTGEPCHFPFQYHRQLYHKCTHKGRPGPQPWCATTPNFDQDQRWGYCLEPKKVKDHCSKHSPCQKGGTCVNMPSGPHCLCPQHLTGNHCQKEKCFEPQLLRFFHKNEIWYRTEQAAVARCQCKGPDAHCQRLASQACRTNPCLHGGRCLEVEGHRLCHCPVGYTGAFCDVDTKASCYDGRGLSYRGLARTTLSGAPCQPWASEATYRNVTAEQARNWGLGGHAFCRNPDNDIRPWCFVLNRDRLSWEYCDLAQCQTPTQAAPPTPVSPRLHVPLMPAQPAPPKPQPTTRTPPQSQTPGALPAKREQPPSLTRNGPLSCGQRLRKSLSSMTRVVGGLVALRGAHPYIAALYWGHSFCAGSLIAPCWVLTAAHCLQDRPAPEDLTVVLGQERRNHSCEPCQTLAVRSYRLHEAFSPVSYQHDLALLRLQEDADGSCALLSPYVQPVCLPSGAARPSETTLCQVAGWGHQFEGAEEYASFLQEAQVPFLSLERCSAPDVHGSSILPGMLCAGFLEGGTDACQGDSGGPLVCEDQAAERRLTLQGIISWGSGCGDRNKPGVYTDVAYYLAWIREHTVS
Chain of UniProt Q7RTT9 (whole entry, looked up): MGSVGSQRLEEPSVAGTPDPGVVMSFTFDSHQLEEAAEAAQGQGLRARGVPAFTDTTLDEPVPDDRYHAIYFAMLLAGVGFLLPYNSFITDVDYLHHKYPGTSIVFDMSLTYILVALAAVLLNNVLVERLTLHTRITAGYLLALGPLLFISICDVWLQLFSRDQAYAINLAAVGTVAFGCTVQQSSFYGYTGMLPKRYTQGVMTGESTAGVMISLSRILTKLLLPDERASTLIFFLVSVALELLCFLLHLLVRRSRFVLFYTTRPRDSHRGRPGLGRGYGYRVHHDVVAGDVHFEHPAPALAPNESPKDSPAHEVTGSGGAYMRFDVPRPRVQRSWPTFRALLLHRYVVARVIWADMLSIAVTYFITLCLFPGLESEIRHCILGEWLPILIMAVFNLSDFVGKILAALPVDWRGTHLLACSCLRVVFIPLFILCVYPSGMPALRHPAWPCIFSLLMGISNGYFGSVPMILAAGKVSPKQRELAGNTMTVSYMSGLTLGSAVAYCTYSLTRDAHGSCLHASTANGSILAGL
Chain of UniProt Q8N884 (whole entry, looked up): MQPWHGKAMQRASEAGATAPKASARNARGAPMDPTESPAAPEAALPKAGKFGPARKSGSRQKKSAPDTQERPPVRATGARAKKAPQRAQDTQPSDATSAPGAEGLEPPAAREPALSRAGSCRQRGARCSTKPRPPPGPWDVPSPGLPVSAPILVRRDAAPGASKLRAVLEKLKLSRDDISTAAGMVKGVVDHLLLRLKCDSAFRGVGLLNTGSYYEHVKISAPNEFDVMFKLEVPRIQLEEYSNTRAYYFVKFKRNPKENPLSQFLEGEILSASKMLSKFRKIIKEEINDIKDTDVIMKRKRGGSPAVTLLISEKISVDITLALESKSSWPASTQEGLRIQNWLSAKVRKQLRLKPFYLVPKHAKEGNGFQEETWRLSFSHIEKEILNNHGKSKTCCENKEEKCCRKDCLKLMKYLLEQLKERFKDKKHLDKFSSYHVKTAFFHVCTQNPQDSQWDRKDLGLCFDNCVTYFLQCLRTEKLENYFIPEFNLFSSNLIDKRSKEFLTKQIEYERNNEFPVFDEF
Chain of UniProt P21452 (whole entry, looked up): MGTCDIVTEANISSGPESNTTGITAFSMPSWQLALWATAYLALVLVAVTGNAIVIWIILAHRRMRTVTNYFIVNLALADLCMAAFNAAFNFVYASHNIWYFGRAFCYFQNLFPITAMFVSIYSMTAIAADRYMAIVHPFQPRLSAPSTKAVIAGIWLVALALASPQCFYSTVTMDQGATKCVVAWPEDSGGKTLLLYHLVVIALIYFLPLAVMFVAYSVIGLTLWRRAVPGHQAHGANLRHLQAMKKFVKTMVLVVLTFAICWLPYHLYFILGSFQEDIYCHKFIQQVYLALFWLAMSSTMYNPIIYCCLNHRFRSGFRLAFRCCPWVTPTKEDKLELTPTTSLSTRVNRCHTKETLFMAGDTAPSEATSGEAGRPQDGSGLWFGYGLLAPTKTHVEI

For `Fc1ccc(/C=C/C=N/NC(=S)NCc2ccc(Cl)cc2)cc1`, inhibition read “inactive” (Urease subunit alpha; enzyme activity, inhibitor, indophenol method; concentration not given; relative to: thiourea).
For `CC[C@@H]1[C@H](F)C(=O)N[C@@H]1COc1nccc2cc(C(N)=O)c(OC)cc12`, the inhibition was 7.8% (PRKAA1 (Homo sapiens, UniProt Q13131); ATP probe binding, KiNativ profiling, refers to: ATP loop probe site; THP-1 cell lysate; 0.01 mM).
`CC(C)C[C@H](NC(=O)C[C@H](O)[C@H](CC(C)C)NC(=O)[C@H](Cc1c[nH]cn1)NC(=O)CNC(=O)[C@@H](NC(=O)[C@H](C)NC(=O)[C@H](Cc1c[nH]c2ccccc12)NC(=O)[C@H](CCC(N)=O)NC(=O)[C@@H](Cc1ccccc1)NC(=O)COCCOCCNC(=O)CCC(C(=O)O)N1CCN(CC(=O)O)CCN(CC(=O)O)CCN(CC(=O)O)CC1)C(C)C)C(N)=O` (stereo partly shown) [lutetium-177 labelled] has a tissue uptake of 81 ± 64 %ID/g (BALB/c nu/nu mice, female, bladder; 100 pmol, 30 min, time course 0.5 h, with: PA 300 µg).
`COc1cc(O)c2c(c1)C(=O)c1cc(C)cc(O)c1C2=O` gave a cell viability of 39.9 ± 10.6% (HepaRG co-cultured with HK-2; MTT; 133.33 µM, 48 h; relative to: untreated control).
`COc1ccc(-c2nn(-c3ccc(S(C)(=O)=O)cc3)cc2/C=N/N=c2\[nH]c(-c3ccc(Br)cc3)cs2)cc1` has an inhibition of 55% (EGFR (Homo sapiens, UniProt P00533, L858R); kinase activity, inhibitor; 0.1 µM).
For `CN(C)C1CCN(CC#Cc2nn(C3CCCC3)c3nc(NCc4ccccc4)ncc23)C1` (stereo not shown), the inhibition was 68% (5'-AMP-activated protein kinase catalytic subunit alpha-1, with beta1, gamma1 (PRKAA1, Homo sapiens, UniProt Q13131); enzyme activity, inhibitor, Z'-LYTE; 10000 nM).
`NC(N)=S` gave an inhibition of 94.6% (Urease subunit alpha; enzyme activity, inhibitor, indophenol method; 0.5 mM).
`O=C(NO)c1ccc(CN2CCCCc3ccccc32)c(F)c1` has an inhibition of 2.79% (HRH4 (Homo sapiens, UniProt Q9H3N8); radioligand binding, radioligand displacement; 10 µM).
With `CC(=O)c1c(C)cc2cc(O)cc(O[C@@H]3O[C@H](CO)[C@@H](O)[C@H](O)[C@H]3O)c2c1O` the cell viability was 58.6 ± 4.02% (HepaRG co-cultured with HK-2; MTT; 266.67 µM, 48 h; relative to: untreated control).
For `O=C(CN1CCO[C@H](COc2cccnc2)C1)N1CCc2ccccc21`, the inhibition was 10.6% (HTR4; radioligand binding; concentration not given).
`Cn1cc(-c2cnc3ccc(NC(=O)Nc4ccc(F)c(Br)c4)cc3n2)cn1` gave an inhibition of 3.3% (IKBKB (Homo sapiens, UniProt O14920); kinase binding, KiNativ profiling, refers to: Lys2 peptide; PANC-1 lysate; 1.25 µM).
For `Cc1cc2c(cc1N1C(=O)c3cccc4c(CCCO)ccc(c34)C1=O)n(C)c(=O)n2C` (racemic), the inhibition was 0% (BRD1 (Homo sapiens, UniProt O95696); binding, BROMOscan binding; 1000 nM).
`C[C@@H]1CCO[C@H]2Cn3cc(C(=O)NCc4ccc(F)cc4F)c(=O)c(O)c3C(=O)N12` has an inhibition of -8.24% (SLC29A4 (Homo sapiens, UniProt Q7RTT9); transport; MDCK-II, transfected; 0.5 µM, with: MPP+ 10 µM).
For `Clc1cccc(OC[C@@H]2CN(CCN3CCc4ccccc43)CCO2)c1`, the inhibition was 22.7% (DRD5 (Homo sapiens, UniProt P21918); radioligand binding; concentration not given, with: [3H]SCH23390).
`O=C(Nc1cnc2ccccc2c1)c1cc2[nH]ccc2cc1Cl` has a necrotic cells of 1.03 ± 0.39 (COS-7; 1 µM, 24 h, 0.1% DMSO, unit not given; relative to: vehicle control).
`COc1ccc(F)cc1C(=O)NCc1ccc(-c2nn([C@@H](C)C(F)(F)F)c(N)c2C(N)=O)cc1` has an inhibition of 35.9% (MAP2K1 (Homo sapiens, UniProt Q02750); target engagement, competitive chemoproteomics; human PBMCs; 10 µM).
`COc1cc(C(=O)NS(=O)(=O)c2ccccc2C)ccc1Cc1cn(C)c2ccc(NC(=O)OC3CCCC3)cc12` gave an inhibition of 69.9% and 89.6% and 84.3% and 81.2% and 91.2% and 84.2% (Volume-regulated anion channel subunit LRRC8C, part LRRC8A IL1 chimera (LRRC8C, Homo sapiens, UniProt Q8TDW0, Y126F); ion current, inhibitor, whole-cell patch clamp; HCT LRRC8-/- cells; 3 µM, +100 mV).
For `O=c1c(-c2ccc3c(c2)OCO3)coc2c(Cn3cccn3)c(O)ccc12`, the inhibition was 14.4% (MAL12; inhibitor; 25 µM).
For `O=c1c(/C=N/NC(=S)Nc2c(F)cccc2F)coc2cc(F)ccc12`, the inhibition was 91.4% (MAL12; enzyme activity, inhibitor; 500 µM).
`O=c1ccc2ccc(O)c(Cn3cccn3)c2o1` gave an inhibition of under 0% (MAL12; inhibitor; 25 µM).
For `CC(C)c1ccc(NC(=S)N/N=C/C=C/c2ccc(F)cc2)cc1`, the inhibition was 81.9% (Urease subunit alpha; enzyme activity, indophenol method; 500 µM).
With `Cc1ccc(OC[C@H]2CN(CCN3CCc4ccccc43)CCO2)cn1` the inhibition was 49% (HTR1A; radioligand binding; concentration not given, with: [3H]8-OH-DPAT).
With `COc1c(C#N)ccnc1N1C2CCC1CN(C(=O)c1cccnc1-n1cccn1)C2` the inhibition was -20.3% (α2; binding; 10 µM).
`Cc1ccnc(C)c1OC[C@H]1CN(CCN2CCc3ccccc32)CCO1` gave an inhibition of 36.3% (HTR1A; radioligand binding; concentration not given, with: [3H]8-OH-DPAT).
The inhibition of `N=C(N)c1ccc(-c2ccc(-c3ccc(C(=N)N)cc3)o2)cc1` is reported as 99 ± 8% (F12 (Homo sapiens, UniProt P00748); enzyme activity, inhibitor; concentration not given, pH 7.4).
`Cc1cc(-c2ccnc3[nH]cc(F)c23)cc(F)c1[C@@]1(O)[C@H](C)CN(C(=O)CN)C[C@@H]1C` gave an inhibition of 7.9% (AKT1 and AKT3; ATP probe binding, KiNativ, refers to: Lys2 site; HEK293T cell lysate; 0.1 µM).
`Cn1cc(-c2ccc(-c3cncc(Cl)c3N3CCC4(CCNC4=O)CC3)cc2)cn1` — result for “log2 fold change”: 5.99 (COLO 205; gene expression, microarray, refers to: PRDM8 mRNA; concentration not given, 2 h; relative to: untreated cells).
With `Cc1cc(-c2ccnc3[nH]cc(F)c23)cc(F)c1[C@@]1(O)[C@H](C)CN(C2CCS(=O)(=O)CC2)C[C@@H]1C` the inhibition was 28% (AKT1 and AKT3; ATP probe binding, KiNativ, refers to: Lys1 site; HEK293T cell lysate; 10 µM).
With `CCN1/C(=C/C(C)=O)Sc2ccc(F)cc21` the inhibition was 0.12% (TACR2 (Homo sapiens, UniProt P21452); 10 µM).
The inhibition of `O=C(CN1CCO[C@H](COc2cccc(Cl)c2)C1)N1CCc2ccccc21` is reported as 15% (HTR4; radioligand binding; concentration not given).
With `Cc1ccc(C(=O)Nc2ccc3ccccc3c2)o1` the inhibition was 9.27% (Asic3 (Rattus norvegicus, UniProt O35240); ion current, whole-cell patch-clamp; 10 µM, rASIC3).
For `O=C1c2ccccc2CCN1CCCCN1CCN(c2ccccn2)CC1`, the inhibition was 10.7% (HTR4; radioligand binding; concentration not given).
For `COc1ccc2[nH]c3c(c2c1)[C@H]1C[C@@H]([C@H]3C)N(Cc2ccccc2)C[C@]1(C)O`, the inhibition was 0% (Mu-type opioid receptor (Cavia porcellus, UniProt A0ACM8Q262); binding, radioligand binding; guinea pig brain membranes; 1 µM, with: [3H]DAMGO).
`COc1ccc2c(c1)C(=O)N(CCCN1CCN(c3ccccc3OC)CC1)C2` has an inhibition of 6.9% (HTR4; radioligand binding; concentration not given).
For `Cc1nn(-c2nc3c(F)cc(F)cc3s2)c(O)c1C(c1cccc(C(F)(F)F)c1)c1c(C)nn(-c2nc3c(F)cc(F)cc3s2)c1O`, the inhibition was 29.8% (Cyclic GMP-AMP synthase, catalytic domain; with DNA (CGAS, Homo sapiens, UniProt Q8N884); cGAS phase separation, inhibitor; 1.563 µM).
With `Clc1cncc(OC[C@@H]2CN(CCN3CCc4ccccc43)CCO2)c1` the inhibition was 24.4% (HTR4; radioligand binding; concentration not given).
`O=C(Nc1cccc2c(=O)cc(-c3nnn[nH]3)oc12)c1ccc(OCCCCc2ccccc2)cc1` has an inhibition of -4.24% and 13.3% and -8.04% and -8.85% and 58.6% and -3.08% (LRRC8A/LRRC8C (Homo sapiens, UniProt Q8IWT6+Q8TDW0, Y124F/Y126F); ion current, whole-cell patch clamp; HCT LRRC8-/- cells; 3 µM, -100 mV, Y124F/Y126F heteromers).
